Results collected from several papers.
Parts stem from different laboratories: compare values within a part only.

Set 1 — method: universal PBM; molecule type: double-stranded DNA, one strand shown; matrix: in vitro; concentration: 600 nM; reading: higher = stronger binding; measurement: E-score
Target: Sal-like protein 4, full length isoform A (SALL4, Homo sapiens, UniProt Q9UJQ4, residues 1-1053)
UniProt Q9UJQ4, sequence (whole entry, looked up): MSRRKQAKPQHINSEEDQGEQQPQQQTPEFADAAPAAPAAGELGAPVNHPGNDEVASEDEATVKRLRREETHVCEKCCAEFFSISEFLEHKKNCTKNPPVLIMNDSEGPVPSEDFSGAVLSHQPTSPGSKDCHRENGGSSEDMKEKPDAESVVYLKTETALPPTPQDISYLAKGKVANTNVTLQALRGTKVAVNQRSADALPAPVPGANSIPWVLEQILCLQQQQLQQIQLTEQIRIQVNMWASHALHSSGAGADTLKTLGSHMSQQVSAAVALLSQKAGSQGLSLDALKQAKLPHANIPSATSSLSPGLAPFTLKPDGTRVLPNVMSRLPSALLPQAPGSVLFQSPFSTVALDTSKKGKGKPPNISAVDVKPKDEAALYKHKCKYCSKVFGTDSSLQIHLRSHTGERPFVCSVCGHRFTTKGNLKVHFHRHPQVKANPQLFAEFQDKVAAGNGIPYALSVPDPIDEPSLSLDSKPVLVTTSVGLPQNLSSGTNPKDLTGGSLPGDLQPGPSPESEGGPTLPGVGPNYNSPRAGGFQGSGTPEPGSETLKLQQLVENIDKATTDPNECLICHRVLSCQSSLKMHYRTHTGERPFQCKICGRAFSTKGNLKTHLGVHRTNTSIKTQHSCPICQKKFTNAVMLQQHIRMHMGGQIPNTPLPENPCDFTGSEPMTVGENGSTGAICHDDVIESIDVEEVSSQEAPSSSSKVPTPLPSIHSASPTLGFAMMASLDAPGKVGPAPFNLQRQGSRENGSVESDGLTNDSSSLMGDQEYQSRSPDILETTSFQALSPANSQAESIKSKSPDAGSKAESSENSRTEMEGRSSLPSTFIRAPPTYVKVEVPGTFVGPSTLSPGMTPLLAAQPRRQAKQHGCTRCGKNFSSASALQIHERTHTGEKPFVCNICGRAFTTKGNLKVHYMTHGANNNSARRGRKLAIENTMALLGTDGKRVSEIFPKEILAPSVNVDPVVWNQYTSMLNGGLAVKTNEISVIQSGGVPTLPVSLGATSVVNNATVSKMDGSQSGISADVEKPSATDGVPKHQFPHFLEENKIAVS
Notes: 8-mer, flanks averaged, mean of replicates
AATGACGC: -0.0274
AGCGATAC: -0.00365
AGCGGCAA: -0.163
AGATAAGA: 0.275
AGCCGCAC: -0.257
ACCAGCTC: -0.159

Set 2 — method: protein binding microarray; molecule type: double-stranded DNA, one strand shown; matrix: in vitro; concentration: not given; reference: not given; reading: higher = stronger binding; measurement: E-score
Target: Histone acetyltransferase KAT6A, winged helix 1, GST fusion (KAT6A, Homo sapiens, UniProt Q92794, residues 1-85)
Notes: 8-mer, flanks averaged, mean of 2 arrays, mostly near background
Construct (chain): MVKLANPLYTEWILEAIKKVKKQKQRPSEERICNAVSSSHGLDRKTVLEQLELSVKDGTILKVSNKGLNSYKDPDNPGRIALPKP
AACCAGTG: -0.125
AGACCACC: -0.0589
AGTGAAGG: -0.183
CTGCAGCC: -0.144
GAGGGCAC: -0.196
CGGGCCAA: 0.0579

Set 3 — method: RNA Bind-n-Seq; molecule type: RNA; matrix: in vitro; concentration: not given; notes: RNA with constant flanks, ends assumed; reference: input RNA pool; reading: higher = stronger binding; measurement: bound/input enrichment
Target: RING finger protein unkempt homolog, zinc fingers 1-6, GST-SBP tag (UNK, Homo sapiens, UniProt Q9C0B0, residues 30-357)
UniProt Q9C0B0, sequence (30-357, looked up): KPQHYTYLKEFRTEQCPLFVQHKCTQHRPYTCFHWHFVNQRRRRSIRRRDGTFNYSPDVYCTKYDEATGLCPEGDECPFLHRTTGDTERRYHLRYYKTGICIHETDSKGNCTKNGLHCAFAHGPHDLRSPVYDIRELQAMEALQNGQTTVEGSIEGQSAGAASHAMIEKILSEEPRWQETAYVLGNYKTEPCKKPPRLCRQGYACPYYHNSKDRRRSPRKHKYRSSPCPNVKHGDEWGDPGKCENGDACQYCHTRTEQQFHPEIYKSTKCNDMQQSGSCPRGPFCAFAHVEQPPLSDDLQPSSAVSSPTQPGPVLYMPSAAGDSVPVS
Shared flanks, not repeated: GGGAGUUCUACAGUCCGACGAUC … CAACAGAGGAUUGAGCAUCA
GAUCAAGCCAGAUCAGCAUUCUCUAACUUGUUUGGUGGGGAACCAUUGUCAUACACCCGGUUCCGCCUUGCUCGGCAAGUAGAUGGAGAUAACAGUCAUGUGGAGAUGAAACUGGCUGCA: 0.168 ratio
GAGAAAGAAAUCCCACCAAAGGAGAUGGAGAAAUCAAAAAUUAAACGACUGUAUAAAUUAUCCGAGAUCUGGAUCGAGUUUGGGCGCAUCAAACUCCUUCAAGGUUAUCAUCCGAACGAC: 0.34 ratio
ACUAUCGUUCCUGGCUAUGAUUUCUUGGUGAAUUCUGUGUGGCCAGAAAUAGUUCGAGGCCCCGAGGAAAAGCUACCCUCGCUCUUCAACCCUGGGGACCCAGACGCCUUUCACCAGAAA: 0.184 ratio
GCGGCCUCAUUGCUACGAUUUCAGAGUACCCUGGUAAUAGCUGAGCAUGCAAAUGAUUCCCCCGCACCCAUUACUUUAAAUACCAUUACUGCAGCCACACGCCUUGGAGGUGAAGUGUCC: 0.479 ratio
UCUUGUUCAUCCCCUUGUAUUGUUUCUCCUUAUUGCUACAGUUAAUAGACAAAAAGGUAACUCCGACCCUUUUUUUUUUUUGGUUUGGCUUGAUAUUGUUUAGUAAAUGGCUAUACAAGU: 1.53 ratio
ACCUUGAAGGAUAGGUUUUCUUUCUGAUGGGCCAAAGUACUGGAAGCAAAGUACUUUCUGCCGCCGCCCAUGCUUACUUGUGACACUUUUAAUAUGAAAUGUAUCCCCAGACCAAAUGUC: 0.138 ratio

Further values, each from its own experiment
PhoQ, residues 284 288 289 292 302 303 AEGLLW
fold induction (PhoP, residues 12 14 15 18 19 GQALL (Escherichia coli, UniProt P23836); Sort-seq, refers to: YFP reporter; E. coli; PhoQ-PhoP variant library, with: 10 µM Mg2+; reference: high Mg2+ state, higher = stronger signaling): 4.48

Repeated from above (set 1):
AATGACGC: -0.0274
AGCGATAC: -0.00365
AGCGGCAA: -0.163
